Measurements pooled from the literature.
Lines come from different studies, so protocols differ. Several values in a cell are separate wells, animals, samples, runs or records. ± marks the error that the study gave.
Tumor necrosis factor receptor superfamily member 9/Nectin-4: Tumor necrosis factor receptor superfamily member 9/Nectin-4 (Homo sapiens, UniProt Q07011+Q96NY8)
UniProt Q96NY8, sequence (whole entry, looked up): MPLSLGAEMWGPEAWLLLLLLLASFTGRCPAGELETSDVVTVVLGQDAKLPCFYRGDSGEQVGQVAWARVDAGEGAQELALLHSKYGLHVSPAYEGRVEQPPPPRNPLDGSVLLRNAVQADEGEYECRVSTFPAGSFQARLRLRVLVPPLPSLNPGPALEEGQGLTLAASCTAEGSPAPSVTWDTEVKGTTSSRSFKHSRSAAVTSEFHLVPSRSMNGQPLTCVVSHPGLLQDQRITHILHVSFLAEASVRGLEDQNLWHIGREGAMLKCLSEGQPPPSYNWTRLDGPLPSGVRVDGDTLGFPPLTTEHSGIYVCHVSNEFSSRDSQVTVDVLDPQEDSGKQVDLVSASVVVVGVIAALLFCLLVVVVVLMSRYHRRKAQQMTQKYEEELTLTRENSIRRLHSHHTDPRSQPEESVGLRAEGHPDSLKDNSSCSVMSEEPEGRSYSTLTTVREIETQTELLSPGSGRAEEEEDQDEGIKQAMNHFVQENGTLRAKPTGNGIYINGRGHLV
UniProt Q07011, sequence (whole entry, looked up): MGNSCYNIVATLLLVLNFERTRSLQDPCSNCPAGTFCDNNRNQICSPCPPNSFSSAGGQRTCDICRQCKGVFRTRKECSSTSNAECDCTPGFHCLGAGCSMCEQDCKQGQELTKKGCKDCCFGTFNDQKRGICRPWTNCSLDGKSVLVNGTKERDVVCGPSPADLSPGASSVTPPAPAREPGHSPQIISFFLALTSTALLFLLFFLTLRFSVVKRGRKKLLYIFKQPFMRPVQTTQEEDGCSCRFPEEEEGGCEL
CSNK1A1/CRBN: Cereblon/Casein kinase I alpha (CSNK1A1/CRBN, Homo sapiens, UniProt P48729+Q96SW2)
UniProt P48729, sequence (whole entry, looked up): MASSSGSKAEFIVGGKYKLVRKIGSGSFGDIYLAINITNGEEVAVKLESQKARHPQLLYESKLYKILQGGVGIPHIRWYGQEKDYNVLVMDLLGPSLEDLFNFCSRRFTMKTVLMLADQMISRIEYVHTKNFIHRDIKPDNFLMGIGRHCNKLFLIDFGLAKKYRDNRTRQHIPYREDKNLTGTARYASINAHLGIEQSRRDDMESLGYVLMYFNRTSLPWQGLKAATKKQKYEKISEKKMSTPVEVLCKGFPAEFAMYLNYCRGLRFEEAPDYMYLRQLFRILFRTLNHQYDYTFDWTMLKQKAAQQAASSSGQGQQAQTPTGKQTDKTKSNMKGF
UniProt Q96SW2, sequence (whole entry, looked up): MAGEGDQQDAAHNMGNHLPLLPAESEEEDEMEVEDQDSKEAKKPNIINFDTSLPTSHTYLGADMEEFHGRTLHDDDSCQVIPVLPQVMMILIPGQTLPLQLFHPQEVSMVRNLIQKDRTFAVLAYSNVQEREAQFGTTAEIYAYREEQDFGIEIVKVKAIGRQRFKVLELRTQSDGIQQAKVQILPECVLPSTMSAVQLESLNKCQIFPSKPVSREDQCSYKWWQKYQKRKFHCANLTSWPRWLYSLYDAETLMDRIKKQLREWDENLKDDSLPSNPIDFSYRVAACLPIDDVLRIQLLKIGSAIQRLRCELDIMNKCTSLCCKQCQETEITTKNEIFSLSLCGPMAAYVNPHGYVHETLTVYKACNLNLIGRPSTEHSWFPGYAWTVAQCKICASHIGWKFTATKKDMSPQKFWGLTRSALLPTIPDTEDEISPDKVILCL
NR4A1: Nuclear receptor subfamily 4 group A member 1 (NR4A1, Homo sapiens, UniProt P22736)
UniProt P22736, sequence (whole entry, looked up): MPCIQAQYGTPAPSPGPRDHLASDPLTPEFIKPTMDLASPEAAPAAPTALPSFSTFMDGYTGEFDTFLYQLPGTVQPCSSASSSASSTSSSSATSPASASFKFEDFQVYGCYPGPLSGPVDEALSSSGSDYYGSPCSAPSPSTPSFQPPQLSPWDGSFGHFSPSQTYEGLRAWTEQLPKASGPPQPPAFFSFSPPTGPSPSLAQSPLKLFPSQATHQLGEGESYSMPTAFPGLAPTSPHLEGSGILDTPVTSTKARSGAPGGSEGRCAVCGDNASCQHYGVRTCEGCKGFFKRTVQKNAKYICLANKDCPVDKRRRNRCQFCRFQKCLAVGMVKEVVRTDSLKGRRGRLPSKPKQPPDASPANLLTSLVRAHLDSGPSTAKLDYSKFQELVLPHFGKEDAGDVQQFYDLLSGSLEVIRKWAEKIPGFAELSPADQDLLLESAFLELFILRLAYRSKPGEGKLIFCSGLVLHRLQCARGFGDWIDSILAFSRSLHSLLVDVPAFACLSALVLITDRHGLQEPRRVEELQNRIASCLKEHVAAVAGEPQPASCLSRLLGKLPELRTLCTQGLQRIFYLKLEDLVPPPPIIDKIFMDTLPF
T1: RNA, 2'-deoxy at 37-40 (Fusobacterium nucleatum); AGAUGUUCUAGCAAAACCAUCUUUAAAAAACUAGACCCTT
T2: riboswitch RNA yjdF aptamer, L3 replaced by GAAA (Bacillus subtilis); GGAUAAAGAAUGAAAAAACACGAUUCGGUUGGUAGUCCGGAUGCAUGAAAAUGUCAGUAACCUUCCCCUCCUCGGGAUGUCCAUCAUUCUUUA
T3: ssDNA, aptamer; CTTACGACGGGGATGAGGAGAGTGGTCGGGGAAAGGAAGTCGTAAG
UniProt O76090, sequence (whole entry, unmodified, looked up): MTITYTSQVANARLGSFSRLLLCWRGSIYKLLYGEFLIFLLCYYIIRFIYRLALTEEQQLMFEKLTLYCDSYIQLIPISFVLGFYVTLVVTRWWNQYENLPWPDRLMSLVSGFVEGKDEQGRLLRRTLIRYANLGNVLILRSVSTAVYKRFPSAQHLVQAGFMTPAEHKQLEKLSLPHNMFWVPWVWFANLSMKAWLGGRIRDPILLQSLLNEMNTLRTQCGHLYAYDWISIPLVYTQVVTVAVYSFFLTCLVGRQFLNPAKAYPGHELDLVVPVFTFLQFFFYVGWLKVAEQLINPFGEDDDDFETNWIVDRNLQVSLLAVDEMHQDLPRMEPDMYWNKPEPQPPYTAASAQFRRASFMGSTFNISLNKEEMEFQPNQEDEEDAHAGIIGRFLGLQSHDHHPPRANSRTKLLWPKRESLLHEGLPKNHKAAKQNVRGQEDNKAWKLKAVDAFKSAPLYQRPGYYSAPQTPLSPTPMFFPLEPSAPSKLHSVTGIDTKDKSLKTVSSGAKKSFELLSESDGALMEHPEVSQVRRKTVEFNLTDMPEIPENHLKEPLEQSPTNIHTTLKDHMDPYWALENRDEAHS
UniProt P51575, sequence (whole entry, unmodified, looked up): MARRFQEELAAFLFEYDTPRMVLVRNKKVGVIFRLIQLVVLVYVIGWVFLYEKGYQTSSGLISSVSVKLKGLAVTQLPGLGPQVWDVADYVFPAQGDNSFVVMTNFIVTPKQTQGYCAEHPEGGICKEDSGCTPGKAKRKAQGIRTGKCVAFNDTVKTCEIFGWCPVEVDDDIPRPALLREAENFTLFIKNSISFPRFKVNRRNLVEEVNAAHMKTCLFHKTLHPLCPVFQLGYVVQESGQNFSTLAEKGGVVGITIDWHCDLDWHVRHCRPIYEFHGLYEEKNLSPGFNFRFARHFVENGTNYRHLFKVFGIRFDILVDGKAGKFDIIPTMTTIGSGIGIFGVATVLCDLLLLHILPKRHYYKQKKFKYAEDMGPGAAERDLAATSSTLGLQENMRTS
UniProt Q8NER1, sequence (whole entry, unmodified, looked up): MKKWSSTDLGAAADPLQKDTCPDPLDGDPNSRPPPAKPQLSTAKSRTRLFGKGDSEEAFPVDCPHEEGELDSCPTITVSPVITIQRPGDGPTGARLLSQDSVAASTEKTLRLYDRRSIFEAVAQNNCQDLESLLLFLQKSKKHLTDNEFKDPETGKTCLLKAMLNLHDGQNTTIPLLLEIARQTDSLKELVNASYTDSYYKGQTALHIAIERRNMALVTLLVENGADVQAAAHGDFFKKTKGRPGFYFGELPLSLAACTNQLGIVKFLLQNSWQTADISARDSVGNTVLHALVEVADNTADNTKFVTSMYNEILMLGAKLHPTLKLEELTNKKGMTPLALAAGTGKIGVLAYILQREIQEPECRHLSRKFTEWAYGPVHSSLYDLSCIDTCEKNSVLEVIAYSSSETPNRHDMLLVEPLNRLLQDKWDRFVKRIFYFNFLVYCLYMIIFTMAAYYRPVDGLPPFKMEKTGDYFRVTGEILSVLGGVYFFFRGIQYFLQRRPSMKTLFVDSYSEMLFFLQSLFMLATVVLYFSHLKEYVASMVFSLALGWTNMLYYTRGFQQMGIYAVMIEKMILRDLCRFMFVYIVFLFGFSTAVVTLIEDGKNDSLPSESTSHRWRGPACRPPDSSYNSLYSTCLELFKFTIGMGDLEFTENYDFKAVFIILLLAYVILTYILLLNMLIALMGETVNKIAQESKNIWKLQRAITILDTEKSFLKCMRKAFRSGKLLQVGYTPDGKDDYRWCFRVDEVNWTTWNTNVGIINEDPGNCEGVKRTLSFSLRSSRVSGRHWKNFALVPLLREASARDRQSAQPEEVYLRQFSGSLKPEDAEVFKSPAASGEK
UniProt Q16774, sequence (whole entry, looked up): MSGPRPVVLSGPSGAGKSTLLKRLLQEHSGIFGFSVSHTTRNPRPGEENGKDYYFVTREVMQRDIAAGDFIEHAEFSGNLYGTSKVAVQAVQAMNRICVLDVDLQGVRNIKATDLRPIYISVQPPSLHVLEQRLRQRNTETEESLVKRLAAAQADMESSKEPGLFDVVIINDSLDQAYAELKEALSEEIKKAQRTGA
UniProt P00441, sequence (whole entry, unmodified, looked up): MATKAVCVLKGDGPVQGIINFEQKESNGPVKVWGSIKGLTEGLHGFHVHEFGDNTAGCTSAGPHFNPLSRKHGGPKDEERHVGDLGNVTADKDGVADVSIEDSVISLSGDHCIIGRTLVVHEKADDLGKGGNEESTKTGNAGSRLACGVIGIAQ
UniProt P02754, sequence (whole entry, looked up): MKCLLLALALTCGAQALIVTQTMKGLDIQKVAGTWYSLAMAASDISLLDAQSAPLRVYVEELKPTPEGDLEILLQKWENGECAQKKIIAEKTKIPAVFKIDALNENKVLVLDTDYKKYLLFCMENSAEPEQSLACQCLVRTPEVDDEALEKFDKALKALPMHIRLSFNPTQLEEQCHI
UniProt Q96AM1, sequence (whole entry, looked up): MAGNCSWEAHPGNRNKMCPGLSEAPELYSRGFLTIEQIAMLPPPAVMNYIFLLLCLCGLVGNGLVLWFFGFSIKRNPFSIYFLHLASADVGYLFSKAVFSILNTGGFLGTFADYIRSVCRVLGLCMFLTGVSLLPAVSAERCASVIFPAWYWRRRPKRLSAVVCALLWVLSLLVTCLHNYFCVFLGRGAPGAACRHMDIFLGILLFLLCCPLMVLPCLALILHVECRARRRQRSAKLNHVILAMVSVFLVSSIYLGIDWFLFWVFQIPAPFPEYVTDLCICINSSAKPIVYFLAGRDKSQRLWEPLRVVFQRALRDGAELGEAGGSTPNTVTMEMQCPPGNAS
UniProt Q9KCC6, sequence (whole entry, unmodified, looked up): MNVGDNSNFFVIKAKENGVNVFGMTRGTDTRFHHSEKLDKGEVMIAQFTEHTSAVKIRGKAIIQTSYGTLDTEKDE

Structure (SMILES) | target | test | test system | conditions | scale | endpoint | value
CCCC[C@@H]1NC(=O)[C@H](Cc2ccc(O)cc2)NC(=O)[C@@H]2CCCN2C(=O)[C@H](CC(=O)O)NC(=O)[C@H](C)NC(=O)[C@H](Cc2ccccc2)NC(=O)[C@@H]2CSCCC(=O)N3CN(CN(C3)C(=O)CCSC[C@@H](C(N)=O)NC1=O)C(=O)CCSCCC(=O)N[C@@H](CC(C)(C)C)C(=O)N1CCC[C@H]1C(=O)N[C@@H](CCC(=O)O)C(=O)N[C@H](CCCCNC(=O)CCc1cn(CCOCCOCCOCCN(CCOCCOCCOCCC(=O)N[C@H]3CSCCC(=O)N4CN5CN(C4)C(=O)CCSC[C@H](NC(=O)[C@@H](CC(=O)O)NC(=O)[C@H](Cc4cccc6ccccc46)NC(=O)[C@@H]4CCCN4C3=O)C(=O)N[C@@H](CCSC)C(=O)N[C@@H](CCCCNC(=N)N)C(=O)N[C@@H](CC(=O)O)C(=O)N[C@@H](Cc3c[nH]c4ccccc34)C(=O)N[C@@H](CO)C(=O)N[C@@H]([C@@H](C)O)C(=O)N3CCC[C@H]3C(=O)N3C[C@H](O)C[C@H]3C(=O)N[C@@H](Cc3c[nH]c4ccccc34)C(=O)N[C@H](C(N)=O)CSCCC5=O)CCOCCOCCOCCn3cc(CCC(=O)NCCCC[C@H]4NC(=O)[C@H](CCC(=O)O)NC(=O)[C@@H]5CCCN5C(=O)[C@H](CC(C)(C)C)NC(=O)CCSCCC(=O)N5CN6CN(C5)C(=O)CCSC[C@H](NC(=O)[C@H](Cc5ccc(O)cc5)NC(=O)[C@@H]5CCCN5C4=O)C(=O)N[C@@H](Cc4ccccc4)C(=O)N[C@@H](C)C(=O)N[C@@H](CC(=O)O)C(=O)N4CCC[C@H]4C(=O)N[C@@H](Cc4ccc(O)cc4)C(=O)N[C@@H](CCCC)C(=O)N[C@H](C(N)=O)CSCCC6=O)nn3)nn1)C(=O)N1CCC[C@H]1C(=O)N[C@@H](Cc1ccc(O)cc1)C(=O)N2 | Tumor necrosis factor receptor superfamily member 9/Nectin-4 | reporter gene, agonist | HT-1376 coculture with reporter cells | – | baseline: background | Emax | 67 fold
C[C@@H](c1ccc(-n2cnc3c(N)ncnc32)cc1)N1CCc2nn(C)c(Cc3ccccc3)c2C1=O | Non-receptor tyrosine-protein kinase TYK2, JH2 pseudokinase domain (TYK2, Homo sapiens, UniProt P29597) | KINOMEscan | – | 0.1 µM | baseline: DMSO control | remaining binding | 74%
C[C@H]1O[C@@H](O[C@H]2CC[C@@]3(C)[C@@H](CC[C@]4(C)[C@@H]3C=CC3=C5CC(C)(C)CC[C@]5(CO)[C@@H](O)C[C@]34C)[C@]2(C)CO)[C@H](O)[C@@H](O[C@@H]2O[C@H](CO)[C@@H](O)[C@H](O)[C@H]2O)[C@H]1O | NAD-dependent protein deacetylase sirtuin-1 (SIRT1, Homo sapiens, UniProt Q96EB6) | binding, microscale thermophoresis | – | 131 nM | – | MST normalised fluorescence | 884 a.u.
Nc1nc2c(ncn2[C@@H]2O[C@H](COP(=O)(O)O)[C@@H](O)[C@H]2O)c(=O)[nH]1 | GUK1 (Homo sapiens, UniProt Q16774) | enzyme activity, NADH-coupled | – | 500 µM | – | reaction rate | 38.7 s⁻¹ and 29.5 s⁻¹ and 39.7 s⁻¹
c1coc(-c2n[nH]cc2-c2ccnc3ccccc23)c1 | Mitosis inhibitor protein kinase SWE1 (SWE1, Candida albicans, UniProt Q5AP97) | kinase binding, MIB/MS competition | Candida albicans lysate | 1 µM | baseline: DMSO, negative = stronger binding | log2 fold change | -0.12
O=C1CCC(N2Cc3cc(-c4cnc5ccccc5c4)ccc3C2=O)C(=O)N1 (centres unmarked) | CSNK1A1/CRBN | degrader, Western blot time-course | MOLT-4 | 1 µM | – | degradation time | < 3 h
Cc1ccnc(C)c1OC[C@H]1CN(CCN2CCc3ccccc32)CCO1 | 5-hydroxytryptamine receptor 5A (HTR5A, Homo sapiens, UniProt P47898) | radioligand binding | – | concentration not given, added: [3H]LSD | – | inhibition | -16.4%
COc1cc(CNC(=O)CCCC/C=C/C(C)C)ccc1O | Transient receptor potential cation channel subfamily V member 1 (TRPV1, Homo sapiens, UniProt Q8NER1) | channel activation, FLIPR calcium | HEK293T | 0.00102 µM | higher = more activation | calcium response | 2.94 a.u. and 5.71 a.u. and -3.37 a.u. and -4.15 a.u.
COc1cc(CNC(=O)CCCC/C=C/C(C)C)ccc1O | Transient receptor potential cation channel subfamily V member 1 (TRPV1, Homo sapiens, UniProt Q8NER1, Y495Q) | agonist, outside-out patch clamp | – | Y495Q mutant | – | Hill coefficient | 1.1
Cc1cc(NC(=O)C=Cc2ccccc2)cc(-c2ccnc(N3CCC(O)CC3)c2)c1 | NR4A1 | SPR | – | 10.0 µM | – | binding response | 81.9 RU
CC(C)=CCC/C(C)=C/C=C/C(C)=C/C=C/C(C)=C/C=C/C=C(C)/C=C/C=C(C)/C=C/C=C(\C)CCC=C(C)C | Beta-lactoglobulin (LGB, Bos taurus, UniProt P02754) | fluorescence quenching | – | 308 K | – | Stern-Volmer quenching constant | 4370 ± 840 L/mol
CN(C)c1ccc(Cc2nnc(NS(=O)(=O)c3ccc(N)cc3)s2)cc1 | Glutathione hydrolase 1 proenzyme, without transmembrane domain (Homo sapiens, UniProt P19440) | GSH hydrolysis, uncompetitive inhibitor | – | 37 °C, binds gamma-glutamyl enzyme, added: GSH 5-20 µM | – | Kii | 363 ± 35 µM
Nc1ccc(C(=O)O)cc1 | BEST1, with wild-type BEST1 (Homo sapiens, UniProt O76090, A10T) | whole-cell patch clamp | HEK293 co-expressing WT and A10T mutant | concentration not given, membrane potential 100 mV | – | current density | 36.8 pA/pF and 18.1 pA/pF and 38.5 pA/pF and 63.5 pA/pF and 19.6 pA/pF and 49.9 pA/pF
Nc1ncnc2c1ncn2[C@@H]1O[C@H](COP(=O)(O)CP(=O)(O)OP(=O)(O)O)[C@@H](O)[C@H]1O | P2X purinoceptor 1 (P2RX1, Homo sapiens, UniProt P51575, K140A) | saturation binding | HEK293 | 25 nM | – | specific binding | 1600 CCPM and 1170 CCPM and 4270 CCPM
Cc1ccc(S(=O)(=O)Oc2ccccc2NC(=O)c2ccc3ncccc3c2)cc1 | P2X purinoceptor 2 (P2RX2, Homo sapiens, UniProt Q9UBL9) | calcium mobilization | MCF7 stably transfected | 100 µM, added: ATP 100 µM | – | fluorescence increase | 61.6 ± 1.11%
Nc1nc2[nH]cc(C(=O)O)c2c(=O)[nH]1 | T1, RNA, 2'-deoxy at 37-40 (Fusobacterium nucleatum) | MST | – | apparent | – | Kd | 11 µM
O=S(=O)(O)C1CCNCC1 | Sodium- and chloride-dependent taurine transporter (SLC6A6, Homo sapiens, UniProt P31641, Y138A) | binding, microscale thermophoresis | – | 62.5 µM, room temperature, added: 50 nM labelled protein | higher = more binding | normalised MST signal | 0.0316
COCCOCc1ccc(-c2cc3onc(-c4ccccc4)c3c(=O)n2C)cc1 | NR4A1 | reporter gene, NBRE reporter full-length | – | 1 µM | baseline: vehicle | activation | 1.57 ± 0.18 fold

Structure (SMILES) | target | test | test system | conditions | scale | endpoint | value
CC1(C)CC2(C)OC(=O)NC2(C)c2ccccc21 (centres unmarked) | FBXW7 (Homo sapiens, UniProt Q969H0) | binding, affinity selection mass spectrometry | – | – | baseline: other proteins in batch | log fold enrichment | -0.00682
N[C@@H](Cc1c[nH]c2ccccc12)C(=O)O | Transcription attenuation protein MtrB (mtrB, Halalkalibacterium halodurans, UniProt Q9KCC6) | isothermal titration calorimetry | – | 25 °C, site 1 two-site model | – | ΔH | -49.1 ± 3.2 kcal/mol
COc1cccc(C(=O)Nc2ccc3c(c2)CN(C2CCC(=O)NC2=O)C3=O)c1 (centres unmarked) | CSNK1A1/CRBN | degrader, live-cell HiBiT kinetic | HEK293 LgBiT | 10 µM | – | degradation rate constant | 1.9 h⁻¹
Nc1nnc(-c2cccc(Cl)c2Cl)c(N)n1 | Sodium channel protein type 5 subunit alpha (SCN5A, Homo sapiens, UniProt Q14524) | sodium current block kinetics | – | 25 µM | – | fast recovery time constant | 0.79 s
CCCCCCCC(=O)c1cc(OC)c(OC)c(OC)c1CC(=O)OCC | NR4A1 | reporter gene, NBRE reporter full-length | – | 10 µM | baseline: vehicle | activation | 0.73 fold
CC[C@@H]1[C@H](F)C(=O)N[C@@H]1COc1nccc2cc(C(N)=O)c(OC)cc12 | Serine/threonine-protein kinase PRP4 homolog (PRPF4B, Homo sapiens, UniProt Q13523) | ATP-site probe binding, ActivX profiling | THP-1 cell lysate | 0.04 mM, Lys1 site | – | inhibition | 7.1%
CCN1CCC[C@H]1CNC(=O)c1c(O)c(Cl)cc(Cl)c1OC | Mas-related G-protein coupled receptor member F (MRGPRF, Homo sapiens, UniProt Q96AM1) | β-arrestin recruitment, TANGO luminescence, item: MRGPRF | – | concentration not given | baseline: basal luminescence | log2 fold change | 0.328
[O-][S+]1CCCCS1 (centres unmarked) | Superoxide dismutase [Cu-Zn] (SOD1, Homo sapiens, UniProt P00441, G94A) | LC-MS | brain homogenate | 0.5 µM, 1 h, 37 °C | – | SOD1 monomer fraction | 99.7%
O=c1nc(SCc2cc(F)cc(C(F)(F)F)c2)nc(SCc2ccc3sccc3c2)[nH]1 | DNA topoisomerase 2-alpha (TOP2A, Homo sapiens, UniProt P11388) | ATPase activity | – | 7.8 µM, added: ATP 0.05 mM | – | ATP hydrolysis rate | 0.456 µM/min and 0.467 µM/min
Cc1cc2nc3[nH]c(=O)[nH]c(=O)c3nc2cc1C | T2, riboswitch RNA yjdF aptamer, L3 replaced by GAAA (Bacillus subtilis) | fluorescence titration | – | added: 380 nM lumichrome | – | Kd | 0.09 µM
O=C(O)c1ccc(Nc2ncc3c(n2)-c2ccc(Cl)cc2C(c2c(F)cccc2F)=NC3)cc1 | MAPK1(h) | kinase activity | – | 1 µM | – | remaining activity | 91%
Cc1cc(-c2cccc(-n3cc(COC(=O)[C@]4(C)C=C(C(=O)OC(C)(C)C)C(=O)CC4)nn3)c2)c(C)c2c1CNCC2 | Mitogen-activated protein kinase 8 (MAPK8, Homo sapiens, UniProt P45983) | D-peptide binding, inhibitor, FP peptide displacement | – | 25 µM | lower is stronger displacement | fraction bound | 0.458
Nc1ncnc2c1ncn2[C@@H]1O[C@H](COP(=O)(O)O)[C@@H](O)[C@H]1O | T3, ssDNA, aptamer | ITC | – | – | – | Kd | 90.5 µM
O=c1ccn([C@@H]2O[C@H](COP(=O)(O)OP(=O)(O)OP(=O)(O)O)[C@@H](O)[C@H]2O)c(=O)[nH]1 | DNA-directed RNA polymerase subunit beta' / DNA-directed RNA polymerase subunit beta (rpoC/rpoB, Escherichia coli, UniProt P0A8T7+P0A8V2) | RNA extension, rapid quench-flow | Escherichia coli, elongation complex, 6-MI template | 200 µM, 25 °C, slow complex fraction | – | nucleotide addition rate | 1 ± 0.1 s⁻¹
C#CCNS(=O)(=O)c1ccc(CCN(Cc2cc(Cl)ccc2OCCC)C(=O)c2csc3ccccc23)cc1 | NACHT, LRR and PYD domains-containing protein 3 (Nlrp3, Mus musculus, UniProt Q8R4B8) | IL-1β release | J774A.1 | added: LPS, ATP | baseline: -label | fold potency | 2 fold
CN1CCC(CNc2ccc3ncc(-c4cccc(OC(F)(F)F)c4)n3n2)CC1 | 5-hydroxytryptamine receptor 2B (HTR2B, Homo sapiens, UniProt P41595) | calcium flux | – | 10 µM | baseline: control | response | > 50%
CCCC[C@@H]1NC(=O)[C@H](Cc2ccc(O)cc2)NC(=O)[C@@H]2CCCN2C(=O)[C@H](CC(=O)O)NC(=O)[C@H](C)NC(=O)[C@H](Cc2ccccc2)NC(=O)[C@@H]2CSCCC(=O)N3CN(CN(C3)C(=O)CCSC[C@@H](C(=O)N[C@@H](CNC(=O)CCc3cn(CC(=O)N[C@H]4CSCCC(=O)N5CN6CN(C5)C(=O)CCSC[C@H](NC(=O)[C@@H](CC(=O)O)NC(=O)[C@H](Cc5cccc7ccccc57)NC(=O)[C@@H]5CCCN5C4=O)C(=O)N[C@@H](CCSC)C(=O)N[C@@H](CCCCNC(=N)N)C(=O)N[C@@H](CC(=O)O)C(=O)N[C@@H](Cc4c[nH]c5ccccc45)C(=O)N[C@@H](CO)C(=O)N[C@@H]([C@@H](C)O)C(=O)N4CCC[C@H]4C(=O)N4C[C@H](O)C[C@H]4C(=O)N[C@@H](Cc4c[nH]c5ccccc45)C(=O)N[C@H](C(N)=O)CSCCC6=O)nn3)C(N)=O)NC1=O)C(=O)CCSC[C@H](NC(C)=O)C(=O)N[C@@H](CC(C)(C)C)C(=O)N1CCC[C@H]1C(=O)N[C@@H](CCC(=O)O)C(=O)N[C@H](C)C(=O)N1CCC[C@H]1C(=O)N[C@@H](Cc1ccc(O)cc1)C(=O)N2 | Tumor necrosis factor receptor superfamily member 9/Nectin-4 | reporter gene, agonist | HT-1376 coculture with reporter cells | – | baseline: background | Emax | 37 fold
